Published values pooled from the literature.
Each numbered part is a random draw from the data of one study; scales do not carry over between parts.
Chain of UniProt Q96L34 (whole entry, looked up): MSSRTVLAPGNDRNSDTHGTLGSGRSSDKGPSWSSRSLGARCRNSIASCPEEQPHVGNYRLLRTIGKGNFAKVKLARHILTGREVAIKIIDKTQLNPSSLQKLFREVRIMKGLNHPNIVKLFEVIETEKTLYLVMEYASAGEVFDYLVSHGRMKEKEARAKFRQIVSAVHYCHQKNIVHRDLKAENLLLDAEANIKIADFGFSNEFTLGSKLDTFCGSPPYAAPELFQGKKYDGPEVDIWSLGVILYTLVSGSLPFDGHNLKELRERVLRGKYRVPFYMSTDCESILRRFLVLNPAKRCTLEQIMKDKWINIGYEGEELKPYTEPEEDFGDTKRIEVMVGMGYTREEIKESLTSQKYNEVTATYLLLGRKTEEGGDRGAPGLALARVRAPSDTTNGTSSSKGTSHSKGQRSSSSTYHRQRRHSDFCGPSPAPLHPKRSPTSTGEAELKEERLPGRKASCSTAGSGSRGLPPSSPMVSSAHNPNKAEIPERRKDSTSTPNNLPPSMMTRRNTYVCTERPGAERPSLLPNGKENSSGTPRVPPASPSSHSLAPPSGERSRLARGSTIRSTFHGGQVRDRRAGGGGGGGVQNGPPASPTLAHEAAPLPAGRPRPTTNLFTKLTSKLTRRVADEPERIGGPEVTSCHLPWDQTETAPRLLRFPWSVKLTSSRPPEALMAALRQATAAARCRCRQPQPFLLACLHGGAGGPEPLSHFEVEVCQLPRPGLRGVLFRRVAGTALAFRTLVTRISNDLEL
Chain of UniProt Q16566 (whole entry, looked up): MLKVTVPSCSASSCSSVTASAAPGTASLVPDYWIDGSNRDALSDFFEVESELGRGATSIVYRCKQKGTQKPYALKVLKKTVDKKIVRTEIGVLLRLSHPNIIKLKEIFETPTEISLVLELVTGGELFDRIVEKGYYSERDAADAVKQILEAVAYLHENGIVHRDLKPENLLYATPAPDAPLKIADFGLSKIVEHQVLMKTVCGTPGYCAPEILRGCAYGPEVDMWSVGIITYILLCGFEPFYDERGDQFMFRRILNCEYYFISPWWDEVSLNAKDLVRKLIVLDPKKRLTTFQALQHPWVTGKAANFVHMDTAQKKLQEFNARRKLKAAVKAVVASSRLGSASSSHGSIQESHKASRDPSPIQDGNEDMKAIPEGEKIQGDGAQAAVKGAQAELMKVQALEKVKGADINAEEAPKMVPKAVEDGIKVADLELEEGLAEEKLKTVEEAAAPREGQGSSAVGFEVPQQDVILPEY
Chain of UniProt P28482 (whole entry, looked up): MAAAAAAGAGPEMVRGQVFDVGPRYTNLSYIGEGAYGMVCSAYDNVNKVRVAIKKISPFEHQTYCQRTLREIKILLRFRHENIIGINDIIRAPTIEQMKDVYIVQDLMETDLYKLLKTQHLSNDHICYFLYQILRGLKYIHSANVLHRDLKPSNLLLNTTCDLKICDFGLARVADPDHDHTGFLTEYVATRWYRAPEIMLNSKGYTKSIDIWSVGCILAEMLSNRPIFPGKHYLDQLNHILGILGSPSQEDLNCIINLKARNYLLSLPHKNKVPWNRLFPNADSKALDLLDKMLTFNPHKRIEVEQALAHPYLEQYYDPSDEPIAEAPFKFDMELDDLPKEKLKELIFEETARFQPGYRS
Chain of UniProt P49761 (whole entry, looked up): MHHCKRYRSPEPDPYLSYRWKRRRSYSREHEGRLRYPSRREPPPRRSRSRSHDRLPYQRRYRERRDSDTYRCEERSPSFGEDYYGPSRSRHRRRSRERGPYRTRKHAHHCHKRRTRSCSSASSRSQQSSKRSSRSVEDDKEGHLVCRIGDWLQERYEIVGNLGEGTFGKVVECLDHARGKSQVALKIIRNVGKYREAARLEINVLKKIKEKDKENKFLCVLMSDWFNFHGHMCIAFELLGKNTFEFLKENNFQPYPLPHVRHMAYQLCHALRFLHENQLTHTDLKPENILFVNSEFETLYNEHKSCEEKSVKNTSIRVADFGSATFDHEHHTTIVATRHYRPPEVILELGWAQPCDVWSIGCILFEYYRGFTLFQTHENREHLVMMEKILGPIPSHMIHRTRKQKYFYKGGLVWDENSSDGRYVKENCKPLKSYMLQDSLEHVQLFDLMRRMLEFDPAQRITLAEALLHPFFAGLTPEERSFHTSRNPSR
Chain of UniProt Q9HAZ1 (whole entry, looked up): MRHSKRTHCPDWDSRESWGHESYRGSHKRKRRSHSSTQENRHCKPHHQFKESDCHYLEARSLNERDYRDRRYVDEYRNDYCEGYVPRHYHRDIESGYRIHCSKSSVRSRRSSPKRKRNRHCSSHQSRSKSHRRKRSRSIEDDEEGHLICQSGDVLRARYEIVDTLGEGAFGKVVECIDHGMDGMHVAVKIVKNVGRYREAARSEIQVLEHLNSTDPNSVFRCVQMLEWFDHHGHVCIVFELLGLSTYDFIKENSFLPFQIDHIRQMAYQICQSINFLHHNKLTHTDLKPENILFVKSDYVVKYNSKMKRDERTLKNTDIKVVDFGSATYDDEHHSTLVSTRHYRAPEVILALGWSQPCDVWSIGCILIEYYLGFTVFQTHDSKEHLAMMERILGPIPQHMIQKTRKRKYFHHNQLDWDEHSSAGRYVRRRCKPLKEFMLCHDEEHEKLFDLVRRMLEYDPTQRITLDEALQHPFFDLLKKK
Chain of UniProt P35968 (whole entry, looked up): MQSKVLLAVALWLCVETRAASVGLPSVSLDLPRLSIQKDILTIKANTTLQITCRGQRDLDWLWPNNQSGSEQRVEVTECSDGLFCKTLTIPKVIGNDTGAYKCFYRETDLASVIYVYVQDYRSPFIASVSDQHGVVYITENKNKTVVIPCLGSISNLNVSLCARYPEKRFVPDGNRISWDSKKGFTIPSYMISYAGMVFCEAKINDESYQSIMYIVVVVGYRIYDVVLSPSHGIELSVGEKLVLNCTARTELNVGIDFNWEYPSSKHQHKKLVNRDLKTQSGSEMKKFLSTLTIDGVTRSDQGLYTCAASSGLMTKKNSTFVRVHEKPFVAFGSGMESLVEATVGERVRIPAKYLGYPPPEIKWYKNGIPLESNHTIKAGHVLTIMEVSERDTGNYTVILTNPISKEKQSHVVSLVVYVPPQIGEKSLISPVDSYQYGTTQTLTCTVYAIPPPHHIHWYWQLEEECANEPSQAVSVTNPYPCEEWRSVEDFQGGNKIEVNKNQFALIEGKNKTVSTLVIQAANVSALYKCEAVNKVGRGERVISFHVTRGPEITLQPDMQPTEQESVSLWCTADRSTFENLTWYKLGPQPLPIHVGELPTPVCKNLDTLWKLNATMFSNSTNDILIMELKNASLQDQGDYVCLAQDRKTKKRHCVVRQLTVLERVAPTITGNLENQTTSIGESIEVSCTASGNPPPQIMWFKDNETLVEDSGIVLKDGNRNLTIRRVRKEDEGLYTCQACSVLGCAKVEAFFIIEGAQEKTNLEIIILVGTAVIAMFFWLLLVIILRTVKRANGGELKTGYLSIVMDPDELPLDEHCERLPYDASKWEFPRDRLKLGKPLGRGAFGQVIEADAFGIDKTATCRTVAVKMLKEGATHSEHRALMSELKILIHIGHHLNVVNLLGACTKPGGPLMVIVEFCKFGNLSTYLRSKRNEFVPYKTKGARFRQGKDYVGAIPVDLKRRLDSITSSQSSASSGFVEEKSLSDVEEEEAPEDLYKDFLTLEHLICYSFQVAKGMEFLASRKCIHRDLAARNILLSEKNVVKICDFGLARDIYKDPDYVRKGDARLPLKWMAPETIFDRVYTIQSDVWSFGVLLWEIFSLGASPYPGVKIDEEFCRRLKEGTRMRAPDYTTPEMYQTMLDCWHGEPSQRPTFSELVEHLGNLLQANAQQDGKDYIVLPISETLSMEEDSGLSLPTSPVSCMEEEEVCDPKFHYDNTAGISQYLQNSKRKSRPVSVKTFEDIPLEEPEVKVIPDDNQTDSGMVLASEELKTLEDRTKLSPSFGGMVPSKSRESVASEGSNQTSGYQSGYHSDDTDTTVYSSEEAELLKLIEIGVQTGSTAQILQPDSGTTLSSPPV

Study 1
Structure (SMILES): NC(=O)c1cccc(-c2cc(Nc3ccc(OC(F)(F)F)cc3)ncn2)c1
Read-out: enzyme activity
Action: inhibitor
Concentration: 0.5 µM
Reference: control
For KDR (Homo sapiens, UniProt P35968): remaining activity read 99.8%.
MAPK1 (Homo sapiens, UniProt P28482) — remaining activity: 96.6%.
It gave 98.1% for remaining activity (MARK4 (Homo sapiens, UniProt Q96L34)).
For MARK2 (Homo sapiens, UniProt Q7KZI7): remaining activity read 90.8%.
PRKG2 (Homo sapiens, UniProt Q13237) — remaining activity: 96.4%.
RPS6KA4 (Homo sapiens, UniProt O75676) — remaining activity: 85.8%.
The remaining activity was 104% (CLK3 (Homo sapiens, UniProt P49761)).
The remaining activity was 111% (TXK (Homo sapiens, UniProt P42681)).
The remaining activity was 109% (PNCK (Homo sapiens, UniProt Q6P2M8)).
For CAMK4 (Homo sapiens, UniProt Q16566): remaining activity read 90.5%.
It gave 93.2% for remaining activity (CDC42BPB (Homo sapiens, UniProt Q9Y5S2)).
DDR2 (Homo sapiens, UniProt Q16832) — remaining activity: 108%.
For CLK4 (Homo sapiens, UniProt Q9HAZ1): remaining activity read 97.8%.

Study 2
Target: Calcium/calmodulin-dependent protein kinase type II subunit alpha (CAMK2A, Homo sapiens, UniProt Q9UQM7)
Chain of UniProt Q9UQM7 (whole entry, looked up): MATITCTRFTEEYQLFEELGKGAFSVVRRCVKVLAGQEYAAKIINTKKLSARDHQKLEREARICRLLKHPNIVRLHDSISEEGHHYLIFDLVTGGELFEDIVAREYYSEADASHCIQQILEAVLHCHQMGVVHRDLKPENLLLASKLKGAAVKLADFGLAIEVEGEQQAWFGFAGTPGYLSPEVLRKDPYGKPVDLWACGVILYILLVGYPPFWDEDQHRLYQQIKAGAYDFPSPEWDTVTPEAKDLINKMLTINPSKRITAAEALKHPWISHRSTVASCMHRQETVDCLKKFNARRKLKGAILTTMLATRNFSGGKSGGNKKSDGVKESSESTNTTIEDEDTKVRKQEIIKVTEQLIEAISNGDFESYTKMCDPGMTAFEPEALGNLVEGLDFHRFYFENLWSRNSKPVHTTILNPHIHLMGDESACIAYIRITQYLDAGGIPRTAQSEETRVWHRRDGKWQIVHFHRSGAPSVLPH
Read-out: enzyme activity
Action: inhibitor
Concentration: 10 µM
`CC(=O)OCC1=C(C(=O)O)N2C(=O)[C@@H](NC(=O)CSC(=NC(C)C)NC(C)C)[C@H]2SC1` gave an inhibition of 0%.
`CC1=C(C)C(=O)O[C@@H]([C@](C)(O)[C@H]2CC[C@H]3[C@@H]4[C@@H]5O[C@@H]5[C@@]5(O)CC=CC(=O)[C@]5(C)[C@H]4CC[C@]23C)C1` gave an inhibition of 5%.
`C=C(C)[C@@H]1CC[C@]2(COC(C)=O)CC[C@]3(C)[C@H](CC[C@@H]4[C@@]5(C)CC[C@H](OC(C)=O)C(C)(C)[C@@H]5CC[C@]43C)[C@@H]12` has an inhibition of -5%.
The inhibition of `CC1=CC(=O)c2ccccc2C1=O` is reported as -11%.
With `COc1ccc(OC)c(C(O)CNC(=O)CN)c1` (centres unmarked) the inhibition was -9%.
`Cc1cc2nc[nH]c2cc1C` gave an inhibition of -50%.
`CCCCNc1cc(C(=O)O)cc(S(N)(=O)=O)c1Oc1ccccc1` gave an inhibition of 7%.
`N=C(N)NC(=N)NCCc1ccccc1` has an inhibition of -10%.

Study 3
SMILES: COc1cc(C(=O)N2CCC(N3CCN(C)CC3)CC2)ccc1Nc1ncc2c(n1)N(C)c1ccccc1C(=O)N2C
The inhibition was -10.2% (ACK (mouse); probe labelling, KiNativ, measured: Lys1 site peptide; brain tissue lysate (mouse); 0.1 µM, with: ATP acyl-phosphate probe).
It gave 6.1% for inhibition (Receptor tyrosine-protein kinase erbB-4 (Erbb4, Mus musculus, UniProt Q61527); KiNativ profiling; mouse brain lysate; 1 µM, LYS1 site, with: ADP acyl phosphate probe).
mouse PYK2; probe labelling, KiNativ ATP probe; mouse brain lysate; 0.1 µM — inhibition: -0.8%.
The inhibition was 5.2% (MYLK; KiNativ ADP probe; human PBMC lysate; 0.1 µM, LYS1 site).
ULK3 mouse; KiNativ profiling; mouse brain lysate; 1 µM, LYS2 site, with: ADP acyl phosphate probe — inhibition: -8.5%.

Study 4
Target: Histamine H2 receptor (HRH2, Homo sapiens, UniProt P25021)
Chain of UniProt P25021 (whole entry, looked up): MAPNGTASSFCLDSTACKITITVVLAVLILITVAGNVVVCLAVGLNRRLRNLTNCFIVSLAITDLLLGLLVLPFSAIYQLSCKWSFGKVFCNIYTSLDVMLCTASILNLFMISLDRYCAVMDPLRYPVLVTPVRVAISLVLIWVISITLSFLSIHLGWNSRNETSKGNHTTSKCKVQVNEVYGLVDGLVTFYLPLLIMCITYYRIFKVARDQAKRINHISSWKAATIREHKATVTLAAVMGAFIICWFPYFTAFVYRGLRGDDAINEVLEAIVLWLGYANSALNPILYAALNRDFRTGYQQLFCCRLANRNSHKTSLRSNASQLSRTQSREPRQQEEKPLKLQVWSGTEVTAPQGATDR
Read-out: ligand displacement
Concentration: 10 µM
The inhibition of `Cc1ncc(-c2cc(Cl)ccc2F)cc1-n1c(=O)n(CC(N)=O)c2ccccc21` is reported as -19.7%.
`CNC(=O)Nc1ccc2c(c1)CC[C@]21OC(=O)N(CC(=O)N(Cc2ccc(F)cc2)[C@@H](C)C(F)(F)F)C1=O` gave an inhibition of 28.2%.
The inhibition of `C[C@H](c1ccc(F)cc1)N(Cc1cccc(C(=O)O)c1)C(=O)c1cnc2ccccc2c1` is reported as -1.14%.
`CN1CCN(c2ccnc(NCCc3ccccc3)n2)CC1` gave an inhibition of 95.6%.
`COc1cc(-c2cn(C3CCc4c(F)cccc4N(CC(F)(F)F)C3=O)nn2)ccc1-n1cnc(C)c1` (centres unmarked) gave an inhibition of 51.8%.
For `c1ccc(C2CCN(c3cnc4c(N5CCOCC5)nccn34)CC2)cc1`, the inhibition was -11%.

Some of these lines once more (study 4):
The inhibition of `C[C@H](c1ccc(F)cc1)N(Cc1cccc(C(=O)O)c1)C(=O)c1cnc2ccccc2c1` is reported as -1.14%.
`CN1CCN(c2ccnc(NCCc3ccccc3)n2)CC1` gave an inhibition of 95.6%.
`COc1cc(-c2cn(C3CCc4c(F)cccc4N(CC(F)(F)F)C3=O)nn2)ccc1-n1cnc(C)c1` (centres unmarked) gave an inhibition of 51.8%.
